Measured values of several laboratories.
Parts stem from different laboratories: compare values within a part only.
Sequence of UniProt O15294 (whole entry, looked up): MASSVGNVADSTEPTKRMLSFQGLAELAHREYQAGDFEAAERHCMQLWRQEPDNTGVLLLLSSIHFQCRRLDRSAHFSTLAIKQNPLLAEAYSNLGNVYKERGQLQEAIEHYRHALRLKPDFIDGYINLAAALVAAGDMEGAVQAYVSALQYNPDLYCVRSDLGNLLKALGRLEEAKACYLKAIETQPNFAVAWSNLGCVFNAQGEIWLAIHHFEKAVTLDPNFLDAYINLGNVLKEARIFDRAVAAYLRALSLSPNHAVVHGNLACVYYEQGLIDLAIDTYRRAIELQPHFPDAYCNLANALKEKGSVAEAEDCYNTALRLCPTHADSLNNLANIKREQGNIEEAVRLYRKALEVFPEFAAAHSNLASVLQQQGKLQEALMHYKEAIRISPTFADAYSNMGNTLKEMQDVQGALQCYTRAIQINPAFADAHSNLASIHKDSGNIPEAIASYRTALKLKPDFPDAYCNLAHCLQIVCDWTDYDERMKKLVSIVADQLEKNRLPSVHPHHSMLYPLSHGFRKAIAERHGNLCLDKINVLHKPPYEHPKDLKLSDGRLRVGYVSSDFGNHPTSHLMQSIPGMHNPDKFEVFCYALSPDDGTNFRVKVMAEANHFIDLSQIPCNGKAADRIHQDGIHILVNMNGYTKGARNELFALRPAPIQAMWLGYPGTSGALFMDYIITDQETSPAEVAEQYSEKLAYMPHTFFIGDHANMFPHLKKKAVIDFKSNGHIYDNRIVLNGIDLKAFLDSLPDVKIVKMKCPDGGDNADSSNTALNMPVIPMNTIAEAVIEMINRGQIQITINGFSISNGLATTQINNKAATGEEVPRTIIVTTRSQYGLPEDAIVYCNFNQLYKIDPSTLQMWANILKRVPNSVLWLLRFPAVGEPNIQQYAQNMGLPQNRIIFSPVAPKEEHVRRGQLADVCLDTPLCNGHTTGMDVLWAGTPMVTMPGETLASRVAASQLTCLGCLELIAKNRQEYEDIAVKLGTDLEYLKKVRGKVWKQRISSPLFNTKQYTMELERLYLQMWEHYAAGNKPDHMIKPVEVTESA

Set 1
Target: RING finger protein unkempt homolog, zinc fingers 1-6, GST-SBP tag (UNK, Homo sapiens, UniProt Q9C0B0, residues 30-357)
Sequence of UniProt Q9C0B0 (30-357, looked up): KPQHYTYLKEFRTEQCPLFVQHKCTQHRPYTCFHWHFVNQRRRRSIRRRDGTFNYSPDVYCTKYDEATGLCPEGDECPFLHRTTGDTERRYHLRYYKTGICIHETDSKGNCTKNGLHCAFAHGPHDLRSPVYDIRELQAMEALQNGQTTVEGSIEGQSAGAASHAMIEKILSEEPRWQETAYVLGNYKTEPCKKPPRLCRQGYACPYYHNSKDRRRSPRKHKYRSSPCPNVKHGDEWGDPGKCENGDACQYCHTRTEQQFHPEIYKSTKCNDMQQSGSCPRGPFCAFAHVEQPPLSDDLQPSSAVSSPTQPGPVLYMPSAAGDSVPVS
Method: RNA Bind-n-Seq
Molecule type: RNA
Matrix: in vitro
Tested at: not given
Notes: RNA with constant flanks, human-mouse chimeric sites, ends assumed
Reference: input RNA pool
Direction: higher = stronger binding
All sequences stand within: GGGAGUUCUACAGUCCGACGAUC … CAACAGAGGAUUGAGCAUCA
Strand | bound/input enrichment [ratio]
UCCCAAAUCCAGCAGCUAGAAGGAGCCAAUUGUUUGUCACUCCACACACAGGGAAGGCGAUAACAUUGUACAUUGGUUUACAUUUUUUCCCCCUGUGUUUUCUAGGGGAGGUCAUAGUGC | 0.606
AAAGAGAAACUAAAGCAACUAAUAGAGAAGAGGAUUGGCAAAGAGAAUUUCAUAGAGGAAACUAGGAUUUAUUAGCAACAUGAGUUAUAUUCCAGAGCGUCUCAGAAACCCCAGCCAAAC | 8
GAUCAUGAACCACCAUCAGAAAUGAAGAUGAGAUUACCCAGACGAGCCAAAACAGCUAGCACUAGAAAAAGUAAACUUAACCUUGCAGAGUUCCUUAAUGAAGAUACUAAGUUAGGAAGC | 3.46
CUCAUGGCUGCAGAAACAGGAAGUGGAAAAACUGGUGCAUUUAGUAUUCCAGUUAUCCAGAUAGUGUAUGAAACUCUGAAAGACCAACAGGAAGGAAAGAAAGGGAAAACAACUAUUAAA | 0.494
CGCUUGGAUGAGGCUGGUGUCACAGAUGAAGUGCUAGAUUCUGCCAUGCAAGCCUUCCUUCUGGAGGUCAUUGUUAAGCAUGGGGAGCCGGCACCUUAUUUAUGUAACAAAGAUCCGUUU | 0.129
GGGACUGAUUCAUCCCAAGGACAGGCCACCCCAUUUGAUGCCUGGACUGACGACAGUAUGGAAGGGCCUAGUCAAAAUGUUGAAGCUGAGUCAAUUCAAGAUAAUGCGAGUAUGGAAGAG | 0.474
GAGUCGAGCAAACUUGAAACAAUUCGUUAUCUUGCAGCCUCAGUGUUCACUUGCUUGGCGAUAGCAUUGGGGUUUUAUAGGUUCUGGGGAAGUAGUAUUAAUGCUCACUGCCGCUGCUGC | 2.27
AAAGUGAUGACUAUGUUUGUACAGCGACAGGUGUUUGCGGAGAGCAAAGAUGAGAUUGCGUUAGUCCUCUAUGGCACAGAUGGCACUGAUAAUGCCCUUGCUGGCAAGGACCAGUAUCAG | 0.196

Set 2
Target: ATP-dependent RNA helicase DDX3X, helicase core (DDX3X, Homo sapiens, UniProt O00571, residues 132-607)
Sequence of UniProt O00571 (132-607, looked up): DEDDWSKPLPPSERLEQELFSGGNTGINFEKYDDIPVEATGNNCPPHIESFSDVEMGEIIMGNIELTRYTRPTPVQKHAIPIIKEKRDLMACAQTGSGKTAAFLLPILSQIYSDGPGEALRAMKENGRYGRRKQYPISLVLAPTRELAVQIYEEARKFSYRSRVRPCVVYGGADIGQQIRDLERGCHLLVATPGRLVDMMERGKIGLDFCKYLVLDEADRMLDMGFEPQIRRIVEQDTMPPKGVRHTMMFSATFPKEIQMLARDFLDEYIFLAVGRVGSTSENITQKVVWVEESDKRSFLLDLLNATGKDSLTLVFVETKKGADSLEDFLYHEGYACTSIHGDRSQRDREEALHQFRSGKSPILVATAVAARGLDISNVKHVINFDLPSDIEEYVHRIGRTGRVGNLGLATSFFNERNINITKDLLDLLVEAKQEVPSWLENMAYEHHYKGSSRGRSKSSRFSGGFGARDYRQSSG
Method: RNA Bind-n-Seq
Molecule type: RNA
Matrix: in vitro
Tested at: not given
Notes: 4-mer, random 30-nt RNA, single round
Added: RocA, ADP, phosphate
Reference: input library
Direction: higher = stronger binding
Strand | 4-mer enrichment
GGGG | 1.66 fold
AUCC | 0.704 fold
AUUG | 0.969 fold
UUCA | 0.709 fold
GGGU | 1.2 fold
UUGC | 0.743 fold
GUGC | 0.838 fold
UGUC | 0.933 fold

Set 3
Target: RNA binding protein fox-1 homolog 2, RRM domain, GST-SBP tag (RBFOX2, Homo sapiens, UniProt O43251-10, residues 100-194)
Method: RNA Bind-n-Seq
Molecule type: RNA
Matrix: in vitro
Tested at: 365 nM
Notes: natural RNA segment, single round, ends assumed
Reference: no-protein control
Direction: higher = stronger binding
All sequences stand within: GGGAGUUCUACAGUCCGACGAUC … UGGAAUUCUCGGGUGCCAA
Construct (chain): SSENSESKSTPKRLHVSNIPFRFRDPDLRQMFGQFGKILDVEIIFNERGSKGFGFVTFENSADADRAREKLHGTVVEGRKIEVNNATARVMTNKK
Strand | RBNS enrichment (R)
AACUGUUUUAAAUCAGGUCUGAUAACUGAUUUAAAUAUAAAUAAUACUAGGAACAAGUAGUUUCCAUAUAUUUCGGAACUUUUAAAAAGACAAAAUGAAACAAAACCGAG | 1.92
CAUCCUCCAUAUAAUCAUCUUUGUUAUUCGUGGGGGUUUAAUUACAUUACAAGUGGCCAAAACCCCUGUUCUCAGUGAAGAACCACAUUGGAUUUGUAUUCUGUUCAGUU | 0.288
GUUUGAUAUUUACCGUGAUAAUUACCUUACCUACCUACCUACUUUCAAUACACUUUAGGUAGCCGAUUAUCUGAUUUAAGUGCAGACACACUUUUCUCACAUUGAGUUGU | 0.428
UACCCUAUUUUUAAGAAGUAGGUAUCAGGUACAGCCAGUGUUUUCAUUGUCUGAUUAAAACAGUUUAUAUGUUGUUGUUAGCUCAUUUAAAGCUACAUCAUGCUGUAGUG | 0.271
UUCUCCUUAUGUUUAAAUGCACAGGCUUAUGUUUAAAUGAACAGAUGUAAAACACAAGCCAGACAGAUGGCAAAGACUAGACUUGCCCGCAAAGAAAUUGAGUUGAUUAG | 1.71
UGUGAAUGUGAAAACCUAACUGGUACACUUGAUCUUGUGUUCAUAUGAAAGUGCAAGUCUUUAUUAAUUUGGAUUGCCUGAACAGUGUAUCCCAUGAUGAUGAAGGAAAA | 0.645
UCUGGAAGGUGUGUGCACAGAGGGUGCUCAUGGGACUCGCAUGCAGCUCUCAGCACUGGGUGGGAGGGCGUUGGCUUGUCCAGAAUGGGGACGUGGGGCAGCCACCCCUG | 4.91
UUUUGCUGGCCUUAACUGGUAUCAAACGCUGUCAUUGAGAUGUUUUCAAAGAACAUUGAGUUGUAUUUAAUCAGCGUGUACUCCAUUUGCAUUGAAGCAUUAAAAAUUAU | 0.495

Other studies, line by line
Sequence | target | test | system | conditions | how to read | quantity | value
NLHHYAKWLASIDH | UDP-N-acetylglucosamine--peptide N-acetylglucosaminyltransferase 110 kDa subunit (OGT, Homo sapiens, UniProt O15294) | binding, phage display NGS | peptide | concentration not given, panning round 2 | reference: input library | enrichment fold change | 2.79

A few entries again (set 1):
Strand | bound/input enrichment [ratio]
UCCCAAAUCCAGCAGCUAGAAGGAGCCAAUUGUUUGUCACUCCACACACAGGGAAGGCGAUAACAUUGUACAUUGGUUUACAUUUUUUCCCCCUGUGUUUUCUAGGGGAGGUCAUAGUGC | 0.606
AAAGAGAAACUAAAGCAACUAAUAGAGAAGAGGAUUGGCAAAGAGAAUUUCAUAGAGGAAACUAGGAUUUAUUAGCAACAUGAGUUAUAUUCCAGAGCGUCUCAGAAACCCCAGCCAAAC | 8
